Experimental data gathered from unrelated publications.
Every numbered part comes from another study and shows a few of its results, in no order. “And” joins repeats or separate records; there may be more than shown.
Chain of UniProt Q9H3Y6 (whole entry, looked up): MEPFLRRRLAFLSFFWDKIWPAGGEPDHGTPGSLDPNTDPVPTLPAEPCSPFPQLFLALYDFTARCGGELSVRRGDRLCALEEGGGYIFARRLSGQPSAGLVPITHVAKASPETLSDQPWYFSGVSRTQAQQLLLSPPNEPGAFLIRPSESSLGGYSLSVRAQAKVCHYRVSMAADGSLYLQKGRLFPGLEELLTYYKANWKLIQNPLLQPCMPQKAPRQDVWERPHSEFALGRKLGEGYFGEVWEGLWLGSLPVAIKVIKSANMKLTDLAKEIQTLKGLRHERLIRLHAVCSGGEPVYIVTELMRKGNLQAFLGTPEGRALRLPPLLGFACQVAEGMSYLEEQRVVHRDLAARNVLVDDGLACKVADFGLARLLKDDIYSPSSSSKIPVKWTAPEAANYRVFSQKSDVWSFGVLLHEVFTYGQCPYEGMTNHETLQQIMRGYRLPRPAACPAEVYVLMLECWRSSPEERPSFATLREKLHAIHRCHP
Chain of UniProt Q6XUX3 (whole entry, looked up): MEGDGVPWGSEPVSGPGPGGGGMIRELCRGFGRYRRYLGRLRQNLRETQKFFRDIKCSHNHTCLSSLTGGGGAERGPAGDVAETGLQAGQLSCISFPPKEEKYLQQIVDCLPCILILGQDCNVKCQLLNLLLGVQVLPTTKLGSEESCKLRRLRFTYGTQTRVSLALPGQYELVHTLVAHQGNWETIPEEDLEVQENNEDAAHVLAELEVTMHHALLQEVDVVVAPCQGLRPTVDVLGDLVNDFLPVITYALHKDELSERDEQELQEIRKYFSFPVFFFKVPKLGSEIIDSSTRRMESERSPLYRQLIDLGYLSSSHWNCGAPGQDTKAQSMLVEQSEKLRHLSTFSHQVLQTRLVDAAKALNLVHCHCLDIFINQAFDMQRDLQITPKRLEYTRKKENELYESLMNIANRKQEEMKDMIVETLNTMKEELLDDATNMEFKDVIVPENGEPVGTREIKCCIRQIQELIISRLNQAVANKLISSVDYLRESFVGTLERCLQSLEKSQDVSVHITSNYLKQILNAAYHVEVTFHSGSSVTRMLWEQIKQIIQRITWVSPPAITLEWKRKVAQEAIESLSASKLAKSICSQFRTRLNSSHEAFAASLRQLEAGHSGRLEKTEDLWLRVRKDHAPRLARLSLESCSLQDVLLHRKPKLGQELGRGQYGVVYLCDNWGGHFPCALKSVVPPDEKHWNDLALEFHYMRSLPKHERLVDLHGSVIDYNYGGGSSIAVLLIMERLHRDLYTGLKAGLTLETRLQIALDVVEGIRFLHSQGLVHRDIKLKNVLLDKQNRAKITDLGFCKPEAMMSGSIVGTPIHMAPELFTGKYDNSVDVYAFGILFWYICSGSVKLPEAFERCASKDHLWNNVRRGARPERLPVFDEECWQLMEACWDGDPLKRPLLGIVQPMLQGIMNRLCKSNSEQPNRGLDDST
Chain of UniProt Q9P2K8 (whole entry, unmodified, looked up): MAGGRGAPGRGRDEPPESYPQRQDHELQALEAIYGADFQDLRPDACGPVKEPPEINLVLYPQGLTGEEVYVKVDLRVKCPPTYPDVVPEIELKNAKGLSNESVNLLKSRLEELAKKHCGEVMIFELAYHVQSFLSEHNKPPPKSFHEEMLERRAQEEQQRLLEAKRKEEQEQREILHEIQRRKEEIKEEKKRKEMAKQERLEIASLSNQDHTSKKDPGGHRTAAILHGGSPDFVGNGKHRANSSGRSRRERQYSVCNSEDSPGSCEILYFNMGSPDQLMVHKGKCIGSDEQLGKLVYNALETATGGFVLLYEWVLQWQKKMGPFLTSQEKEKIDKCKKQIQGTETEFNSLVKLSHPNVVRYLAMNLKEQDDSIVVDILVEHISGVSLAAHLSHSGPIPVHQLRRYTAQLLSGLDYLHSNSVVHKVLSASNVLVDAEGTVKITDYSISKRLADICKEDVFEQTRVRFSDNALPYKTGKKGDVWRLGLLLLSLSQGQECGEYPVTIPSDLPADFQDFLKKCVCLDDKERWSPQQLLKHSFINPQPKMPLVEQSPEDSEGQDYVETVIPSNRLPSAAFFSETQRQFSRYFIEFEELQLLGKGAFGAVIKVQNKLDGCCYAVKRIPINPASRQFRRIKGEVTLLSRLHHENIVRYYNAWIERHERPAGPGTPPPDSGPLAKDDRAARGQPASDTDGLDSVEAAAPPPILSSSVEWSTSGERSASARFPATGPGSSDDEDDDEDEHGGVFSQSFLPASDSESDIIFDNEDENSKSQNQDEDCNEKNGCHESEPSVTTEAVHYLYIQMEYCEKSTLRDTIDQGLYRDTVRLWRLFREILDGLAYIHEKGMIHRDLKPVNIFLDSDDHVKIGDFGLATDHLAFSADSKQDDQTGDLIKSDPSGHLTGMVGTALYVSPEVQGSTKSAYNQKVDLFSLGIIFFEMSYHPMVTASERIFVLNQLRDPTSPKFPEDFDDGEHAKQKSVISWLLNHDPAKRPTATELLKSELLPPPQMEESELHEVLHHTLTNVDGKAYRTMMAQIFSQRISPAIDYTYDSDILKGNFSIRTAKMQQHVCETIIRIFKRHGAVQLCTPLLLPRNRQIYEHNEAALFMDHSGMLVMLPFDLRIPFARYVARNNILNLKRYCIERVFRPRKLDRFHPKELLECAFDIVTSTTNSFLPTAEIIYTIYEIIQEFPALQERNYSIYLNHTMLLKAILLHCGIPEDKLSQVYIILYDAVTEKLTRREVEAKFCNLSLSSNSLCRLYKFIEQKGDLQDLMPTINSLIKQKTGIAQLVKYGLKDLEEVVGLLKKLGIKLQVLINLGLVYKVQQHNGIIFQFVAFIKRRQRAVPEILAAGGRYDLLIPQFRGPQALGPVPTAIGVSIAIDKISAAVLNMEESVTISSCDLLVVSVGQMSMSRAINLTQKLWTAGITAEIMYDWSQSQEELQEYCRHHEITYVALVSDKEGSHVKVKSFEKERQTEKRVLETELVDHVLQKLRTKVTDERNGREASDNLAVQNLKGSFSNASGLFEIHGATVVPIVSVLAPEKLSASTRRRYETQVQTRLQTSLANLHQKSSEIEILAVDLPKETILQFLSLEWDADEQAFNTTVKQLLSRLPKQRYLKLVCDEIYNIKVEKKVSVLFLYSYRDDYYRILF
Chain of UniProt P07949 (whole entry, unmodified, looked up): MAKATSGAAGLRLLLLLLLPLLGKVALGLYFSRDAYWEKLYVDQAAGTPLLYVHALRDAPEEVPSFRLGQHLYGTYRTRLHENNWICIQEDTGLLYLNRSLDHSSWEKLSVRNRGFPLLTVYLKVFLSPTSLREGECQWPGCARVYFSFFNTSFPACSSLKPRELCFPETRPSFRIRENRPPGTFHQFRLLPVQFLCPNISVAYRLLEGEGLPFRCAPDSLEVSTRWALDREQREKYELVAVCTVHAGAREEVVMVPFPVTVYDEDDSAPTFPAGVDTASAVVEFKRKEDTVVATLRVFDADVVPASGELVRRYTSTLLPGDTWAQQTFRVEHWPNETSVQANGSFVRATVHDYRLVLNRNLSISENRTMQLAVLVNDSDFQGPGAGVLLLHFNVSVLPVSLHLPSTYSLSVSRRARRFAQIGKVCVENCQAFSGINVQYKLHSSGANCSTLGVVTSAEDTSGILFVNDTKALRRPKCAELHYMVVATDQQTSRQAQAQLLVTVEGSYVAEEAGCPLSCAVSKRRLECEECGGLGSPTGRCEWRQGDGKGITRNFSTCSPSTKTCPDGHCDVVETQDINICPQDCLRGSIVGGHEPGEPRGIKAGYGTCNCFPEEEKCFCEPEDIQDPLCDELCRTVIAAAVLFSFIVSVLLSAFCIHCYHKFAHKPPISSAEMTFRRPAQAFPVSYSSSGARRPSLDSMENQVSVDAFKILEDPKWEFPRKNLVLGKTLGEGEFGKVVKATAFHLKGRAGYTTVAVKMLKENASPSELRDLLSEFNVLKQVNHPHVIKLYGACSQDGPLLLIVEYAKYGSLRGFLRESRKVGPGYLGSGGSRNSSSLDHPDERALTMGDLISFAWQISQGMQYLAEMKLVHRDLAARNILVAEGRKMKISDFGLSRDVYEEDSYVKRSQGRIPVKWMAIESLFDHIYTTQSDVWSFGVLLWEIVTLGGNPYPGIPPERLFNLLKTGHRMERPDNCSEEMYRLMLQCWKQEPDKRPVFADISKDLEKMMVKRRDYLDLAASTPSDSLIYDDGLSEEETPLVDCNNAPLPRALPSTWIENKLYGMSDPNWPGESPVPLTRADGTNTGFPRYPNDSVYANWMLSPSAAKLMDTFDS

Set 1 — effect on: enzyme activity; mode: inhibitor; tested at: 0.5 µM; relative to: control
Target: Tyrosine-protein kinase Fer (FER, Homo sapiens, UniProt P16591)
Chain of UniProt P16591 (whole entry, looked up): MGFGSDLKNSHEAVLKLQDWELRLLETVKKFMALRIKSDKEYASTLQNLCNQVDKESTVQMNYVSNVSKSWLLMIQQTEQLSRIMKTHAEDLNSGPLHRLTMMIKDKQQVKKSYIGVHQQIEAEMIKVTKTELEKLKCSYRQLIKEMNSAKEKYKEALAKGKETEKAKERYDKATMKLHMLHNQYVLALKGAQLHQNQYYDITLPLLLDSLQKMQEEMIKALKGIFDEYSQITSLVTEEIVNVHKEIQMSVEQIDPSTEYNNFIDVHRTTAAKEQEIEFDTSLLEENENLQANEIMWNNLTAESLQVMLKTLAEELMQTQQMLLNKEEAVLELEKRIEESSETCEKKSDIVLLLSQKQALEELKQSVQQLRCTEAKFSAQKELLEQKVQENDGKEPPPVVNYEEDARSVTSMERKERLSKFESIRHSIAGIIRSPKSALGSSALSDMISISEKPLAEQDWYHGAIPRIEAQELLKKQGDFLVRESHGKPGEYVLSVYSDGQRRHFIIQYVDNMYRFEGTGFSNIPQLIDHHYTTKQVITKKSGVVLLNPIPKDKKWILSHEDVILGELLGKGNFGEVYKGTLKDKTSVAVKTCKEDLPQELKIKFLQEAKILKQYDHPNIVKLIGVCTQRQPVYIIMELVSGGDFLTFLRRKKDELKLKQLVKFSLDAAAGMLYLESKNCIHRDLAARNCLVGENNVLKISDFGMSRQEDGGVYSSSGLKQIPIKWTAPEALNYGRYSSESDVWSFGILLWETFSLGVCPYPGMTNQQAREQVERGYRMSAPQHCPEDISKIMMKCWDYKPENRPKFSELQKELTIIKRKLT
SMILES	remaining activity [%]
O=C1NC(=O)C(c2cn(CCCn3ccnc3)c3ccccc23)=C1Nc1ccccc1	56.1
C#Cc1cccc(Nc2ncnc3cc(OCCOC)c(OCCOC)cc23)c1	94
CO[C@H]1C[C@@H]2CC[C@@H](C)[C@@](O)(O2)C(=O)C(=O)N2CCCC[C@H]2C(=O)O[C@H]([C@H](C)C[C@@H]2CC[C@@H](O)[C@H](OC)C2)CC(=O)[C@H](C)/C=C(\C)[C@@H](O)[C@@H](OC)C(=O)[C@H](C)C[C@H](C)/C=C/C=C/C=C/1C	92
Oc1ccc(-c2nc(-c3ccncc3)c(-c3ccc(F)cc3)[nH]2)cc1	94.5
CC(C)[C@H](CO)Nc1nc(Nc2cc(N)cc(Cl)c2)c2ncn(C(C)C)c2n1	54.9
O=C(Nc1cccc(Nc2cc(Nc3cccc(C(F)(F)F)c3)ncn2)c1)C1CC1	102
Cn1sc(=O)n(Cc2ccccc2)c1=O	101
COc1ccc(OC)c2c(=S)c3ccccc3[nH]c12	84
Cn1c2ccccc2c2c3c(c4c5ccccc5n(CCC#N)c4c21)CNC3=O	5.9
Cc1ccc(Nc2nccc(N(C)c3ccc4c(C)n(C)nc4c3)n2)cc1S(N)(=O)=O	81.3
COc1ccc(CNC(=O)Nc2ncc([N+](=O)[O-])s2)cc1	101
Nc1ccc2ncnc(NCCc3ccc(Oc4ccccc4)cc3)c2c1	99.5
CNC(=O)c1cc(Oc2ccc(NC(=O)Nc3ccc(Cl)c(C(F)(F)F)c3)cc2)ccn1	101

Set 2 — mode: inhibitor; tested at: 1 µM
Structure (SMILES): CC#CC(=O)N1CCC[C@H]1c1nc(-c2ccc(C(=O)Nc3ccccn3)cc2)c2c(N)nccn12
target	test	inhibition
KIT (Homo sapiens, UniProt P10721, A829P)	enzyme activity	0%
EIF2AK4 (Homo sapiens, UniProt Q9P2K8, S808G)		12%
EIF2AK1 (Homo sapiens, UniProt Q9BQI3)	enzyme activity	0%
SRMS (Homo sapiens, UniProt Q9H3Y6)	enzyme activity	64%
FRK (Homo sapiens, UniProt P42685)	enzyme activity	43%
Ribosomal protein S6 kinase alpha-5, N-terminal kinase domain (RPS6KA5, Homo sapiens, UniProt O75582)		8%

Set 3 — technique: competition with immobilised ligand; tested at: 1 µM
Structure (SMILES): CS(=O)(=O)NCC[C@H](NC(=O)c1cncc2c1cnn2-c1ccc(F)cc1)c1ccnc(S(C)(=O)=O)c1
target	test	remaining binding
RET (Homo sapiens, UniProt P07949, M918T)	cell-free assay	100%
Myosin-IIIb (MYO3B, Homo sapiens, UniProt Q8WXR4)	binding	100%
CDK14 (Homo sapiens, UniProt O94921)	cell-free assay	100%
CDK2 (Homo sapiens, UniProt P24941)	cell-free assay	100%
GAK (Homo sapiens, UniProt O14976)	cell-free assay	100%
CDK11A (Homo sapiens, UniProt Q9UQ88)	binding	100%
DSTYK (Homo sapiens, UniProt Q6XUX3)	cell-free assay	98%
NEK6 (Homo sapiens, UniProt Q9HC98)	cell-free assay	100%

Set 4 — technique: trypan blue exclusion; time: 48 h; relative to: untreated
SMILES: O=C(NC1CCNCC1)c1n[nH]cc1NC(=O)c1c(Cl)cccc1Cl
cell line	conditions	viability
HH	0.001 µM	104% and 103%
HuT78	0.01 µM	106%
HuT78	0.001 µM	104% and 102%
HuT78	10 µM	24.2% and 30%
HH	0.05 µM	97.5% and 102%
HuT78	0.5 µM	36.5% and 51%
HH	0.1 µM	70.6% and 90% and 92.1%

Some of these lines once more (set 4):
cell line	conditions	viability
HuT78	10 µM	24.2% and 30%
HuT78	0.5 µM	36.5% and 51%
HH	0.1 µM	70.6% and 90% and 92.1%
HuT78	0.01 µM	106%
